Measurements pooled from the literature.
Numbered parts are unrelated; each lists some results of a single study. “And” joins repeats or separate records; there may be more than shown.
Sequence of UniProt Q9UPZ9 (whole entry, looked up): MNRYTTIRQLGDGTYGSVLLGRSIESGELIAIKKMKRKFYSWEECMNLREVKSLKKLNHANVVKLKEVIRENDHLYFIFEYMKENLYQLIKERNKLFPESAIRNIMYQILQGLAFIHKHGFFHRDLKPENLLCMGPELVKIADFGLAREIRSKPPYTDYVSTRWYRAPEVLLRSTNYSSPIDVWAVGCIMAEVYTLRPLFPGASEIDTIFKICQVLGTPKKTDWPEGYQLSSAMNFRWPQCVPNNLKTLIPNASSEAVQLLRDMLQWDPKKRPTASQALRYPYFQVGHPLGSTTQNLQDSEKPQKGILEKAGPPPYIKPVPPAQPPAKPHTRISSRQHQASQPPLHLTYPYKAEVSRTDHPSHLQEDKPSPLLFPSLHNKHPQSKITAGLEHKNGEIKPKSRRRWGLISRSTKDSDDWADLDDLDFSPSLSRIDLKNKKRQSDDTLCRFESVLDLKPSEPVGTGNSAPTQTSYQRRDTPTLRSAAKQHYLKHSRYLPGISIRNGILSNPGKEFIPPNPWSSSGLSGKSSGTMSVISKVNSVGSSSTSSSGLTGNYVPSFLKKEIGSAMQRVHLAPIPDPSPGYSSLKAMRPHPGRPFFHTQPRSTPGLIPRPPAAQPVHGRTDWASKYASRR
Sequence of UniProt P06239 (whole entry, looked up): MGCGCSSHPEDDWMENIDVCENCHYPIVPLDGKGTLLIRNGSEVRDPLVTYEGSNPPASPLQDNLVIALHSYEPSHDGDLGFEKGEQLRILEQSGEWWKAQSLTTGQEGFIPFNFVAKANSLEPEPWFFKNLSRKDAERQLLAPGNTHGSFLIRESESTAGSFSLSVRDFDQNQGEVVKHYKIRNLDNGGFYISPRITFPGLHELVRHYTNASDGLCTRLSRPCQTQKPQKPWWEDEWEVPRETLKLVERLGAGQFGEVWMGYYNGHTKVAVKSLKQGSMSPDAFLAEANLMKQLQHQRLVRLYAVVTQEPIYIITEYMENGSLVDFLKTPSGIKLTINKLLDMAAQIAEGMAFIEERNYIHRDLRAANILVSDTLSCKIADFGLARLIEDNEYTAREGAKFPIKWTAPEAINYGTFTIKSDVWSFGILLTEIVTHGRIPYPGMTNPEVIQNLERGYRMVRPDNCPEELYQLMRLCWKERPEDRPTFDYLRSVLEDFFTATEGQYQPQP
Sequence of UniProt Q8N5S9 (whole entry, looked up): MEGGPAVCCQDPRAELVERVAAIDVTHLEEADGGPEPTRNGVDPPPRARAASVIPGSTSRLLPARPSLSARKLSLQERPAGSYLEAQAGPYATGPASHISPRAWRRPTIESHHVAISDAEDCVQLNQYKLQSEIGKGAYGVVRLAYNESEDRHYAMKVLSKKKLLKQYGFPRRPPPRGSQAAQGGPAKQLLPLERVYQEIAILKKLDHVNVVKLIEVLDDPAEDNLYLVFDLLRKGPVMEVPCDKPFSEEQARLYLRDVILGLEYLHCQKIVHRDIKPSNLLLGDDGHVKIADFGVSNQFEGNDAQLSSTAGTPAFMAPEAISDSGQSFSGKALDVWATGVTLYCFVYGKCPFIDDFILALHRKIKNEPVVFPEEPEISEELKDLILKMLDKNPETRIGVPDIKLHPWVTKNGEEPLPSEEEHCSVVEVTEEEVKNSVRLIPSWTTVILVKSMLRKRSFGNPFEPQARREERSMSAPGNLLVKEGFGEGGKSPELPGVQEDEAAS
Sequence of UniProt Q9P1W9 (whole entry, looked up): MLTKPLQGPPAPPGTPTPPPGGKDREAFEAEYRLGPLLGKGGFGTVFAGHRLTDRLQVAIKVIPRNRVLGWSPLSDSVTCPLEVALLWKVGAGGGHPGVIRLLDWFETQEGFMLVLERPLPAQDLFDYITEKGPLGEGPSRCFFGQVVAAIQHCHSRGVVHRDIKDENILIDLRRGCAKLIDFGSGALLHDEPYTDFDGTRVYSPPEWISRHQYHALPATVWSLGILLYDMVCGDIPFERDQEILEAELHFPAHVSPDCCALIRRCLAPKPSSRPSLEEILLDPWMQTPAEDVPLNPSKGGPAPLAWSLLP

Study 1 — action: inhibitor; concentration: 1 µM; measurement: inhibition
Structure (SMILES): CO[C@@H]1[C@H](N(C)C(=O)c2ccccc2)C[C@H]2O[C@]1(C)n1c3ccccc3c3c4c(c5c6ccccc6n2c5c31)C(=O)NC4
STK39 (Homo sapiens, UniProt Q9UEW8); enzyme activity: 0%
CILK1 (Homo sapiens, UniProt Q9UPZ9); enzyme activity: 12%
CDK7 (Homo sapiens, UniProt P50613); enzyme activity: 0%
EPHA8 (Homo sapiens, UniProt P29322); enzyme activity: 6%
STK36 (Homo sapiens, UniProt Q9NRP7); enzyme activity: 0%
MAP2K5 (Homo sapiens, UniProt Q13163); enzyme activity: 11%
Tyrosine-protein kinase ABL1, non-phosphorylated (ABL1, Homo sapiens, UniProt P00519, T315I); enzyme activity: 0%
Tyrosine-protein kinase ABL1, non-phosphorylated (ABL1, Homo sapiens, UniProt P00519); enzyme activity: 12%
Ribosomal protein S6 kinase alpha-6, N-terminal kinase domain (RPS6KA6, Homo sapiens, UniProt Q9UK32): 96%
CAMKK1 (Homo sapiens, UniProt Q8N5S9); enzyme activity: 89%
LCK (Homo sapiens, UniProt P06239); enzyme activity: 89%
INSRR (Homo sapiens, UniProt P14616); enzyme activity: 0%
PIM2 (Homo sapiens, UniProt Q9P1W9); enzyme activity: 0%

Study 2 — effect on: enzyme activity; action: inhibitor; concentration: 0.5 µM; relative to: control; measurement: remaining activity
Target: Serine/threonine-protein kinase PAK 2 (PAK2, Homo sapiens, UniProt Q13177)
Sequence of UniProt Q13177 (whole entry, looked up): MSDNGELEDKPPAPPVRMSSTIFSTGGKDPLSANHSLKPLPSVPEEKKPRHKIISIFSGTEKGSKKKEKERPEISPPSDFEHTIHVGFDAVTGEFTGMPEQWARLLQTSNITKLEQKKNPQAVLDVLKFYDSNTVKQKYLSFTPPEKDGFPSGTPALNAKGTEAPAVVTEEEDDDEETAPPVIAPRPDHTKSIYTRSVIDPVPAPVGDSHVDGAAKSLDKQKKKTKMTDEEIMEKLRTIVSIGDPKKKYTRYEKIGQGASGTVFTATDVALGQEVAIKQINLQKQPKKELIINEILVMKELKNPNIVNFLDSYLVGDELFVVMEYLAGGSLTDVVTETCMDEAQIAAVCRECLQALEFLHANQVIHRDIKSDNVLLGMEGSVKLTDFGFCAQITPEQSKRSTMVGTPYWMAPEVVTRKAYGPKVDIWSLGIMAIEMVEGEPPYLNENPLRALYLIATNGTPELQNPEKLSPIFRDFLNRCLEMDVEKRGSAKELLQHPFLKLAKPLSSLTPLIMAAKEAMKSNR
COc1cc2ncnc(Nc3cccc(Cl)c3)c2cc1OC: 90.7%
N#Cc1c(NC(=O)c2cccc3ccccc23)sc2c1CCCC2: 103%
Cc1nc2cc3nc(-c4cccs4)cnc3cc2n1C: 102%
N#C/C(=C\c1ccc(O)c(O)c1)C(=O)NCc1ccccc1: 76.8%
Cn1nc2c3c(cccc31)C(=O)c1ccccc1-2: 102%
CN([C@@H](Cc1ccc(OS(=O)(=O)c2cccc3cnccc23)cc1)C(=O)N1CCN(c2ccccc2)CC1)S(=O)(=O)c1cccc2cnccc12: 99.1%
Cc1cn(-c2cc(NC(=O)c3ccc(C)c(Nc4nccc(-c5cccnc5)n4)c3)cc(C(F)(F)F)c2)cn1: 94.2%
COc1cc2c(cc1OC)-c1[nH]nc(Nc3cccc(F)c3)c1C2: 99.6%
CCOc1nc(NC(=O)Cc2cc(OC)ccc2OC)cc(N)c1C#N: 101%
CN(C)C[C@H]1CCn2c(c(C3=C(c4cn(C)c5ccccc45)C(=O)NC3=O)c3ccccc32)C1: 85.1%
O=C1C(Cl)=C(N2C(=O)CCC2=O)C(=O)c2ccccc21: 104%
Nc1cccc(-c2cc3c(Oc4cccc(O)c4)ncnc3[nH]2)c1: 88.9%
C[C@@H]1CCN(C(=O)CC#N)C[C@@H]1N(C)c1ncnc2[nH]ccc12: 111%
c1ccc(-c2[nH]ncc2-c2ccnc3ccccc23)nc1: 57%
Cc1cc2ncc(-c3ccccc3)nc2cc1C: 99.3%
CCN(CC)CCNC(=O)c1c(C)[nH]c(/C=C2\C(=O)Nc3ccc(Cl)cc32)c1C: 92.7%
O=C1c2ccccc2-c2n[nH]c3cccc1c23: 91.1%
O=C(Nc1cccc(Nc2nccc(Nc3cccc(C(F)(F)F)c3)n2)c1)C1CC1: 105%
O=c1cc(-c2cccc3c2Sc2ccccc2S3)oc(N2CCOCC2)c1: 100%
COc1cc2ncnc(Nc3ccc(O)c(Br)c3)c2cc1OC: 90.6%
c1ccc(-c2cnc(Nc3ccc(OCCN4CCCC4)cc3)s2)cc1: 94.8%
CCN(CC)CCNC(=O)c1c(C)[nH]c(/C=C2\C(=O)Nc3ccc(F)cc32)c1C: 98.1%
Ic1cccc(CSc2nnc(-c3ccncc3)o2)c1: 97.6%
O=C(NC(NC(=S)Nc1ccc(F)c([N+](=O)[O-])c1)C(Cl)(Cl)Cl)C(c1ccccc1)c1ccccc1 (centres unmarked): 100%

Study 3 — cell line: normal organoid sample E; technique: CellTiter-Glo; species: human; matrix: normal-adjacent epithelium; concentration: 1 µM; relative to: DMSO; measurement: viability
Cc1ccc2nc(CNCCCOc3ccccc3)cc(O)c2c1: 117%
O=C(Nc1cnc(Oc2ccc(F)cc2)nc1)N1CCc2ncccc2[C@@H]1c1ccc(F)cc1: 184% and 150%
O=c1nc(-c2ccccn2)sc2ccccc12: 62% and 71.8%
CC(=O)C1=C(C)N(c2cccc(C(F)(F)F)c2)C(=O)N[C@H]1c1ccc(C#N)nc1: 123% and 103%
O=C(NS(=O)(=O)c1ccc(NCC2CCOCC2)c([N+](=O)[O-])c1)c1ccc(N2CCN(Cc3ccc(C(F)(F)F)cc3-c3ccc(Cl)cc3)CC2)cc1Oc1cnc2[nH]ccc2c1: 94.8% and 119%
O=C(O)c1cc(-c2ccc(C3CCNCC3)cc2)c2ccc(-c3ccc(C(F)(F)F)cc3)cc2c1: 130% and 106%
CCNC(=O)c1cc2c(N3CCOC[C@@H]3C)ccnc2[nH]1: 111% and 116%
O=C1NC(c2ccccn2)Sc2ccccc21 (centres unmarked): 95% and 127%
C[C@H](NC(=O)Nc1cc2[nH]ncc2c(CO)n1)c1ccccn1: 126% and 122%
CC(=O)Nc1c(C(C)=O)c(=O)n(C)c2nc(-c3ccc(Cl)cc3Cl)c(-c3ccc(Cl)cc3)cc12: 117% and 91.9%
CC1=C(C#N)C(c2ccc3[nH]nc(C)c3c2)C(C#N)=C(C)N1: 121% and 122%
CN(C)CC#Cc1ccc(OCCCc2sc(N3CCc4cccc(C(=O)Nc5nc6ccccc6s5)c4C3)nc2C(=O)O)c(F)c1: 47.2% and 65.5%

Study 4 — effect on: enzyme activity; action: inhibitor; concentration: 77 µM; relative to: untreated; measurement: remaining activity
Target: DNA polymerase theta, ATPase domain (POLQ, Homo sapiens, UniProt O75417)
Sequence of UniProt O75417 (whole entry, unmodified, looked up): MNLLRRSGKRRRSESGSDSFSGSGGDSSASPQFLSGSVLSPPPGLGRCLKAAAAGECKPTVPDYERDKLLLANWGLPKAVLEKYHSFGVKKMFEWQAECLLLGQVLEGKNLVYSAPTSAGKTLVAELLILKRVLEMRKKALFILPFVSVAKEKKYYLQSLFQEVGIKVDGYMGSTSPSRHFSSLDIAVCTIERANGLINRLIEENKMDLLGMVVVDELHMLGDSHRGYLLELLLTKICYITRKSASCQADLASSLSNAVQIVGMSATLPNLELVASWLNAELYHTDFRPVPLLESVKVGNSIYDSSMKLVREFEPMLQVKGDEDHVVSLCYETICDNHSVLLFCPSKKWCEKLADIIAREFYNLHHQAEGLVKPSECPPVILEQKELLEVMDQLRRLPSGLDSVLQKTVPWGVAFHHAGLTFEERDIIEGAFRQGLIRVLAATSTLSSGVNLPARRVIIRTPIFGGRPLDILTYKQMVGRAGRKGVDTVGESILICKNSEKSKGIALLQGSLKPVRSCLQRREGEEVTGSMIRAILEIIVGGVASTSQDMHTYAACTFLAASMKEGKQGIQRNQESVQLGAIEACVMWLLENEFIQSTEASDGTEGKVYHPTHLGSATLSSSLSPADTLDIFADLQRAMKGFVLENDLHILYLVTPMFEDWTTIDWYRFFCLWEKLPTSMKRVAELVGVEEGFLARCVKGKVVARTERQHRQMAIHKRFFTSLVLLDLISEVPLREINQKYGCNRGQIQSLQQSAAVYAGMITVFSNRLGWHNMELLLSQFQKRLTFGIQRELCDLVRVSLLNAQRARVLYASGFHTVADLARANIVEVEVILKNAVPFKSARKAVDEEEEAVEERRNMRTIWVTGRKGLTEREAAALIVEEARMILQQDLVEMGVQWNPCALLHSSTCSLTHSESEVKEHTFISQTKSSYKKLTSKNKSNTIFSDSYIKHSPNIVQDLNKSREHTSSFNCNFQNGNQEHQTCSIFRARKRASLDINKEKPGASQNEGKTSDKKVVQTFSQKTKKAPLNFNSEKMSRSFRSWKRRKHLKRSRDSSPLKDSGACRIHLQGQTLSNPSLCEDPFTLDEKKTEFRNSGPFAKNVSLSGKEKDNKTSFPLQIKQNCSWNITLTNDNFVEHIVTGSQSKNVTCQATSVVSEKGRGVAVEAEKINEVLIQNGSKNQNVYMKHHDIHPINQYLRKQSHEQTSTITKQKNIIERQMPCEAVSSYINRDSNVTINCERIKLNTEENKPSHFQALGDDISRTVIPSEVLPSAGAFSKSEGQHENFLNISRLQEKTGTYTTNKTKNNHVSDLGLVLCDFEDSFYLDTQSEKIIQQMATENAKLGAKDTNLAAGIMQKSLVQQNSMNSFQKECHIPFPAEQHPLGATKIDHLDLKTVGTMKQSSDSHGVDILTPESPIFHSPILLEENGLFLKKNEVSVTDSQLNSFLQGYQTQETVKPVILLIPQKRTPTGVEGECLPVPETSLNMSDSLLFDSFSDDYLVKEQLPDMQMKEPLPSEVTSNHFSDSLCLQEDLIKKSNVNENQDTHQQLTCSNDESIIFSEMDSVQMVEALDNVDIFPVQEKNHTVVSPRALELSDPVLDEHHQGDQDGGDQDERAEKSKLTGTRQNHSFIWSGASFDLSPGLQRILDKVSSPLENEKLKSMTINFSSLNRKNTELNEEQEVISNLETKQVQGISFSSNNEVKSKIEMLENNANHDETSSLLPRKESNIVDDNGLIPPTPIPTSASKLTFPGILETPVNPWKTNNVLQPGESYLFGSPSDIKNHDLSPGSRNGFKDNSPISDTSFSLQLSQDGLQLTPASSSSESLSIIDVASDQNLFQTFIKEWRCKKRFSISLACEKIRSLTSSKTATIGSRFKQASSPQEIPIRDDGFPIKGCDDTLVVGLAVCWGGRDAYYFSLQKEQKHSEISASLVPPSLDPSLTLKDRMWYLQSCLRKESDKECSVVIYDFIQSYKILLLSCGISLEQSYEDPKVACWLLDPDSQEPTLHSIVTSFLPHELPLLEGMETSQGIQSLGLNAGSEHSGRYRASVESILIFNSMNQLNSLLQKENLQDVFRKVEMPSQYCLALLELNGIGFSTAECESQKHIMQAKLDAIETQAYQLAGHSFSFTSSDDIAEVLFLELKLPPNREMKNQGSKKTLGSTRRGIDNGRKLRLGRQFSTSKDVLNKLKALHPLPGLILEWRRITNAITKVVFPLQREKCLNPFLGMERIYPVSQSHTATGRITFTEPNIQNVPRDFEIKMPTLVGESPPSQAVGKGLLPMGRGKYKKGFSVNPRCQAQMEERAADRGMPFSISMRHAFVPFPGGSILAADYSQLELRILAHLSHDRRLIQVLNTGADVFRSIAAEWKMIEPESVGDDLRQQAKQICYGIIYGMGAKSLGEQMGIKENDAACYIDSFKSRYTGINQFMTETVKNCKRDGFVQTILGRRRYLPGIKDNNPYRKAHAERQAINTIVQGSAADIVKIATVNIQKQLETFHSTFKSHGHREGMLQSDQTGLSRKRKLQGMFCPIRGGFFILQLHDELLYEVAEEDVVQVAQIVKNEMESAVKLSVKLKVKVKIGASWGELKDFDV
Clc1ccccc1CN1CCc2sccc2C1: 101%
CC(=O)N[C@@H](C(=O)O)C(C)(C)SN=O: 103%
CC1(C)O[C@@H]2C[C@H]3[C@@H]4CCC5=CC(=O)C=C[C@]5(C)[C@@]4(F)[C@@H](O)C[C@]3(C)[C@]2(C(=O)CO)O1: 91.3%
Cc1onc(-c2ccccc2)c1-c1ccc(S(N)(=O)=O)cc1: 97.2%
NC1CCN(O)C1=O (centres unmarked): 94.1%
Cc1cc(F)c(Nc2ncnc3cc(OCc4ccccc4)ccc23)cc1O: 98.4%
c1ccc(-c2ccccn2)nc1: 101%
O=S(=O)(O)Oc1ccc(C(c2ccc(OS(=O)(=O)O)cc2)c2ccccn2)cc1: 92.8%
CC(C)(C)c1cc(NC(=O)Nc2ccc(-c3cn4c(n3)sc3cc(OCCN5CCOCC5)ccc34)cc2)no1: 105% and 101% and 106% and 99.7%
CCCC(=O)OCOC(=O)C1=C(C)NC(C)=C(C(=O)OC)C1c1cccc(Cl)c1Cl (centres unmarked): 102%

A few entries again (study 2):
O=C1C(Cl)=C(N2C(=O)CCC2=O)C(=O)c2ccccc21: 104%
Nc1cccc(-c2cc3c(Oc4cccc(O)c4)ncnc3[nH]2)c1: 88.9%
C[C@@H]1CCN(C(=O)CC#N)C[C@@H]1N(C)c1ncnc2[nH]ccc12: 111%
c1ccc(-c2[nH]ncc2-c2ccnc3ccccc23)nc1: 57%
Cc1cc2ncc(-c3ccccc3)nc2cc1C: 99.3%
